Results from different studies.
Cell line: MDA-MB-231

C[C@@H](N)[C@H](O)CCCCCCCC(=O)CCCCCCCCCCCCCC[C@@H](O[C@@H]1O[C@H](CO)[C@H](O)[C@H](O)[C@H]1O)[C@H](N)CO  selectivity ratio (baseline: IC50 MCF-12A over IC50 MDA-MB-231): 6.5
CCC(=O)C[C@@H](O)C[C@@H](C)C[C@H](NC(=O)[C@@H]1C[C@H](C)CN1C(=O)/C=C/[C@@H](C)CC)C(=O)N[C@H](C(=O)NC(C)(C)C(=O)N[C@@H](CC(C)C)C(=O)N[C@@H](CC(C)C)C(=O)NC(C)(C)C(=O)NC(C)(C)C(=O)NCCC(=O)N[C@@H](C)CN(C)C)[C@H](O)C(C)C  GI50 (cell growth or viability, SRB; 48 h): > 100 nM
CCOC(=O)C1=C(COCc2cn(CCN3C(=O)C(=O)c4cc(Cl)ccc43)nn2)N=C2Sc3ccccc3N2C1c1cccc(Cl)c1 (stereo not shown)  viability (MTT; 100 µM, 48 h): ~58%
N=C(N)NCCC[C@H](NC(=O)[C@H](CCCNC(=N)N)NC(=O)[C@@H]1CCCN1C(=O)[C@H](CCCNC(=N)N)NC(=O)[C@H](CCCNC(=N)N)NC(=O)[C@H](CCCNC(=N)N)NC(=O)[C@H](Cc1c[nH]c2ccccc12)NC(=O)[C@H](CCCNC(=N)N)NC(=O)[C@H](CCCNC(=N)N)NC(=O)[C@H](CCCNC(=N)N)NC(=O)[C@H](CCCNC(=N)N)NC(=O)[C@H](CCCNC(=N)N)NC(=O)[C@H](Cc1c[nH]c2ccccc12)NC(=O)[C@H](CCCNC(=N)N)NC(=O)[C@H](CCCNC(=N)N)NC(=O)[C@H](Cc1ccc(O)cc1)NC(=O)[C@H](CCCNC(=N)N)NC(=O)[C@H](CCCNC(=N)N)NC(=O)[C@H](CCCNC(=N)N)NC(=O)[C@@H](N)Cc1c[nH]c2ccccc12)C(N)=O  zeta potential change (1.0, 5.2, 20.0 µM, 30 min, 37 °C, outcome no effect): no effect
CCN(CC)C1=[S+][Au-]2([S]1)[c]1ccccc1-c1cccc[c]12  mitochondrial gold accumulation (ICP-MS; 10 µM, 18 h): 9 nmol/20 million cells
CC[C@H](C)[C@@H]([C@@H](CC(=O)N1CCC[C@H]1[C@H](OC)[C@@H](C)C(=O)N[C@H](C)[C@@H](O)c1ccccc1)OC)N(C)C(=O)[C@@H](NC(=O)[C@H](C(C)C)N(C)C(=O)CCSSC[C@H](NC(=O)[C@@H](NC(=O)CNC(=O)[C@H](CCC(=O)O)NC(=O)[C@H](CC(=O)O)NC(=O)[C@H](C)NC(=O)[C@H](CC(=O)O)NC(=O)[C@@H](NC(=O)[C@H](CC(C)C)NC(=O)[C@H](CC(C)C)NC(=O)[C@H](C)NC(=O)[C@H](CC(C)C)NC(=O)[C@H](CC(=O)O)NC(=O)[C@H](CC(C)C)NC(=O)[C@H](CC(C)C)NC(=O)[C@H](CC(C)C)NC(=O)[C@H](CC(C)C)NC(=O)[C@@H]1CCCN1C(=O)[C@@H](NC(=O)[C@@H](NC(=O)[C@H](Cc1ccccc1)NC(=O)[C@H](CC(C)C)NC(=O)[C@H](Cc1c[nH]c2ccccc12)NC(=O)[C@H](CC(=O)O)NC(=O)[C@H](C)NC(=O)[C@H](Cc1ccc(O)cc1)NC(=O)[C@H](CCCNC(=N)N)NC(=O)[C@H](C)NC(=O)[C@H](Cc1c[nH]c2ccccc12)NC(=O)[C@H](Cc1ccc(O)cc1)NC(=O)[C@@H](NC(=O)[C@@H]1CCCN1C(=O)[C@H](CC(N)=O)NC(=O)[C@H](CCC(N)=O)NC(=O)[C@H](CCC(=O)O)NC(=O)[C@H](C)NC(=O)[C@H](C)N)[C@@H](C)CC)[C@@H](C)O)[C@@H](C)O)C(C)C)[C@@H](C)O)C(=O)NCC(=O)O)C(C)C  cell killing (1.25 µM, 2 h): 100%
NC1CCCCC1N.O=C1[O][Pt]([O]C(=O)c2ccc(P(c3ccccc3)c3ccccc3)cc2)([O]C(=O)c2ccc(P(c3ccccc3)c3ccccc3)cc2)[O]C1=O.[Cl][Au].[Cl][Au]  early apoptotic cells increase (annexin V/PI flow cytometry; IC50, 72 h): 55%
CCC(=O)CCC[C@H](C)C[C@H](NC(=O)[C@@H]1C[C@H](C)CN1C(=O)/C=C/[C@@H](C)CC)C(=O)N[C@H](C(=O)NC(C)(C)C(=O)N[C@@H](CC(C)C)C(=O)N[C@@H](CC(C)C)C(=O)NC(C)(C)C(=O)NC(C)(C)C(=O)NCCC(=O)N[C@@H](C)CN(C)C)[C@H](O)C(C)C  GI50 (cell growth or viability, SRB; 48 h): > 100 nM
CN[C@@H](C)C(=O)N[C@H]1CN(C(=O)Cc2ccccc2)CC[C@H]2CC[C@@H](C(=O)NCc3ccc(C(F)(F)F)cc3)N2C1=O  cell death (TNFα-dependent cell killing, trypan blue; 1 µM, 48 h, added: TNFα-blocking antibody 2 µg/mL): inhibited
CC(=O)NC1C(OC2OC(CC(O)C3OC(n4ccc(=O)[nH]c4=O)C(O)C3O)C(O)C(O)C2NC(=O)COCc2ccc(N3CCC(Oc4ccc(OC(F)(F)F)cc4)CC3)cc2)OC(CO)C(O)C1O (stereo not shown)  migrated cells (Boyden chamber; 0.2 µM; baseline: untreated): < 50%
O=C1[O][Pt]2([OH])([OH])([NH]C3CCCCC3[NH]2)[O]C1=O (stereo not shown)  early apoptotic cells increase (annexin V/PI flow cytometry; IC50, 72 h): 22%
CCCC[C@H](O)C[C@@H](C)C[C@H](NC(=O)[C@@H]1C[C@H](C)CN1C(=O)/C=C/[C@@H](C)CC)C(=O)N[C@H](C(=O)NC(C)(C)C(=O)N[C@@H](CC(C)C)C(=O)N[C@@H](CC(C)C)C(=O)NC(C)(C)C(=O)NC(C)(C)C(=O)NCCC(=O)N[C@@H](C)CNC)[C@H](O)C(C)C  GI50 (cell growth or viability, SRB; 48 h): > 100 nM
Cc1ccc(C(C)C)cc1.O=C(N=P(c1ccccc1)(c1ccccc1)c1ccccc1)c1ccccn1.[Cl-].[Cl][Ru+]  protein level (western blot, refers to: p53; IC20, 6 h and 24 h): no effect
CC(N)C(O)CCCCCCCCCCCCCCC(=O)CCCCCCCC(O)C(C)N (stereo not shown)  selectivity index (cytotoxicity, resazurin; baseline: MCF-12A over MDA-MB-231): 1
CC=C(C)C(=O)OC1C(O)C2OC(COC(=O)CCCCCCCCCC(CCCCC)OC3OC(C)C(OC(C)=O)C(O)C3O2)C1OC(=O)C=Cc1ccccc1 (stereo not shown)  selectivity index (baseline: IC50 MCF-10A over IC50 MDA-MB-231): 1.91
COC(=O)C1CCCN1C(=O)C(Cc1ccccc1)N(C)C(=O)CC(O)C(CC(C)C)NC(=O)C(CC(C)C)N(C)C(=O)C(CC(C)C)NC(=O)C(O)C(C)C (stereo not shown)  log2 fold change (RNA-seq, refers to: death receptor 3 mRNA; 40 µM, 6 h, added: TRAIL 25 ng/mL; baseline: solvent control): 2.4

A few entries again:
C[C@@H](N)[C@H](O)CCCCCCCC(=O)CCCCCCCCCCCCCC[C@@H](O[C@@H]1O[C@H](CO)[C@H](O)[C@H](O)[C@H]1O)[C@H](N)CO  selectivity ratio (baseline: IC50 MCF-12A over IC50 MDA-MB-231): 6.5
CCC(=O)C[C@@H](O)C[C@@H](C)C[C@H](NC(=O)[C@@H]1C[C@H](C)CN1C(=O)/C=C/[C@@H](C)CC)C(=O)N[C@H](C(=O)NC(C)(C)C(=O)N[C@@H](CC(C)C)C(=O)N[C@@H](CC(C)C)C(=O)NC(C)(C)C(=O)NC(C)(C)C(=O)NCCC(=O)N[C@@H](C)CN(C)C)[C@H](O)C(C)C  GI50 (cell growth or viability, SRB; 48 h): > 100 nM
CCOC(=O)C1=C(COCc2cn(CCN3C(=O)C(=O)c4cc(Cl)ccc43)nn2)N=C2Sc3ccccc3N2C1c1cccc(Cl)c1 (stereo not shown)  viability (MTT; 100 µM, 48 h): ~58%
